# Results of several laboratories.
Compound,target or system,assay,test system,setting,how to read,endpoint,value
C[C@H](C(=O)N[C@H]1COc2ccccc2[C@@H]1S(C)(=O)=O)c1ccc(F)cc1,"adrenergic alpha2 receptor, rat",binding,,"10 µM, Eurofins selectivity panel",,inhibition,0%
CC1(C)CC(=O)c2c(C(F)(F)F)nn(-c3ccc(C(N)=O)c(N[C@H]4CC[C@H](O)CC4)c3)c2C1,human alphaherpesvirus 1,,"primary human fibroblasts, K26 GFP",CC50 capped at 10.00 µM,baseline: CC50 over IC50,selectivity index,> 200
CN1CCN(S(=O)(=O)c2cc([N+](=O)[O-])ccc2N(CCOS(C)(=O)=O)CCOS(C)(=O)=O)CC1,,,"NSG mice, sample DB PDX","intraperitoneal, 25 mg/kg weekly x3",,event-free survival,55 days
CS(=O)(=O)CCCn1c(Cn2c(=O)n(CC(F)(F)F)c3ccncc32)cc2cc(Cl)ccc21,respiratory syncytial virus,RT-qPCR,"hospitalized infants 1-24 months, nasal swab","oral, 1-9 mg/kg daily, day 7, all doses combined",baseline: baseline,LS mean viral load change,-4.02 log10 copies/mL
COc1c(CCC[P+](c2ccccc2)(c2ccccc2)c2ccccc2)cc2c(c1OC)OCO2.[I-],DU-145,SRB,,,,GI50,-5.45 log M
Nc1ncnc2c1ncn2[C@@H]1O[C@@H]2COP(=O)(O)O[C@H]3[C@@H](O)[C@H](n4cnc5c(=O)[nH]cnc54)O[C@@H]3COP(=O)(O)O[C@H]2[C@H]1O,West Nile virus,"RNA sequencing Reactome analysis, refers to: Mitotic Anaphase (R-HSA-68882)",HFF-1,"concentration not given, upregulated pathways, added: West Nile virus infection",baseline: WNV-infected without compound,fold enrichment,2.97
CC(=O)c1c(C)c2cnc(Nc3ccc(C4CCN(CCS(C)(=O)=O)CC4)cn3)nc2n(C2CCCC2)c1=O,,tumour growth,"mouse, MDA-MB-435S xenograft","oral, 40 mg/kg twice daily, 25 days",,T/C,48%
CC[C@H](C)[C@@H]1NC(=O)[C@@H]2CCCN2C(=O)[C@H](CC(C)C)NC(=O)[C@H](CC(C)C)NC(=O)CNC(=O)[C@@H](NC(=O)[C@@H](NC(=O)[C@H](CC(=O)O)NC(=O)CNC(=O)[C@@H](NC(=O)[C@H](C)NC(=O)CNC(=O)[C@H](CCCCN)NC(=O)[C@H](CC(C)C)NC(=O)[C@H](CC(C)C)NC(=O)[C@H](CCCCN)NC(=O)CNC(=O)[C@@H](NC(=O)[C@@H](N)CC(C)C)C(C)C)C(C)C)C(C)C)CSSC[C@@H](C(=O)O)NC1=O,,"RNA-seq, refers to: Ccdc61","mouse, traumatic brain injury model, frontal cortex and hippocampus",dose not given,baseline: TBI alone,log2 fold change,-0.756
COc1cc(CCC[P+](c2ccccc2)(c2ccccc2)c2ccccc2)c(OC)c2c1OCO2.[I-],M14,SRB,,,,LC50,-4.19 log M
CC[C@H](C)[C@H](NC(=O)[C@H](C)NC(=O)[C@H](CCCCN)NC(=O)[C@H](CC(C)C)NC(=O)[C@H](C)NC(=O)[C@@H](NC(=O)[C@H](Cc1c[nH]cn1)NC(=O)[C@H](CC(C)C)NC(=O)[C@@H](NC(=O)[C@@H](NC(=O)[C@H](CCCCN)NC(=O)[C@H](C)NC(=O)[C@H](C)NC(=O)[C@H](CO)NC(=O)[C@H](CCCCN)NC(=O)[C@H](Cc1ccccc1)NC(=O)[C@@H](NC(=O)[C@H](CCCCN)NC(=O)[C@H](CC(C)C)NC(=O)[C@H](Cc1ccccc1)NC(=O)[C@H](CO)NC(=O)[C@H](CCCCN)NC(=O)[C@H](Cc1c[nH]c2ccccc12)NC(=O)[C@H](CCCCN)NC(C)=O)[C@@H](C)O)[C@@H](C)O)C(C)C)[C@@H](C)O)C(=O)N[C@@H](CO)C(=O)N[C@@H](CO)C(N)=O,Pseudomonas aeruginosa,,IPM-R,81 strains,,MBC50,16 µg/mL

# Repeated from above:
Compound,target or system,assay,test system,setting,how to read,endpoint,value
CC1(C)CC(=O)c2c(C(F)(F)F)nn(-c3ccc(C(N)=O)c(N[C@H]4CC[C@H](O)CC4)c3)c2C1,human alphaherpesvirus 1,,"primary human fibroblasts, K26 GFP",CC50 capped at 10.00 µM,baseline: CC50 over IC50,selectivity index,> 200
